Measured values from different studies.
Each line is one published result; not all experiments were run side by side. ± marks the error that the study gave.

COc1ccc(-n2nc(C(C)=O)s/c2=N\N=C(/C)c2ccc(NC(=O)c3ccc(C)cc3)cc2)cc1 — toxicity (HepG2; 1.25 µM): 86.6%
Clc1ccc(C2(c3ccc(-c4cn[nH]c4)cc3)CCNCC2)cc1 — Mcl-1 MFI (primary CLL cells; flow cytometry; human; 0.1 µM, 24 h; relative to: DMSO, higher = more protein): 1190 a.u.
Cc1c(C(=O)O)ccc2c3n(nc12)[C@@H]1[C@H](C3)N(CC2CC2)[C@@]2(C(=O)Nc3cc(Cl)ccc32)[C@H]1c1cccc(Cl)c1F — GI50 (NUGC-4; cell growth, alamarBlue; unbound): 0.00033 µM
Br.CN(C)c1nc(=Nc2cccc(Cl)c2)ss1 — efficacy (C127 LDR GFP reporter cells; silenced GFP reporter induction, activator, high-content imaging; retest, two-run mean): 41%
Cn1c(=O)c2[nH]cnc2n(C)c1=O — activity score (human iPSC-derived cardiomyocytes; MyBP-C/MYH ratio, plate-normalised SD score; concentration not given, primary screen; direction not given): 5
O=C(/C=C/C=C/C=C/C1CCCCC1)NC1=C[C@@](O)(/C=C/C=C/C=C/C(=O)NC2=C(O)CCC2=O)[C@@H]2O[C@@H]2C1=O — GI50 (KYSE-30; cell growth, CellTiter-Glo; 78 h): 10.5 µM
NC(=O)NC1NC(=O)NC1=O (stereo not shown) — activity score (human iPSC-derived cardiomyocytes; MyBP-C/MYH ratio, plate-normalised SD score; concentration not given, primary screen; direction not given): -4.7
C=CC1=C(C)c2cc3[n-]c(cc4nc(cc5[n-]c(cc1n2)c(C)c5C=C)C(C)=C4CCC(=O)O)c(CCC(=O)O)c3C.[Zn+2] — fold change (SH-SY5Y; RNA-seq, refers to: HSPB7 mRNA; 5 µM, 5 h; relative to: untreated cells): 1.5
CCN(CC)C(=S)SSC(=S)N(CC)CC — efficacy (C127 LDR GFP reporter cells; silenced GFP reporter induction, activator, high-content imaging; retest, two-run mean): 104%
COc1cc(Nc2nccc(-c3cnn4nc(OC)ccc34)n2)cc(C(F)(F)F)c1 — IC50 (Hep3B2.1-7; cell growth, CellTiter-Glo; liver): 2.4 µM
CCN(CC)C(=O)c1ccc(O)c(OC)c1 — activity score (human iPSC-derived cardiomyocytes; MyBP-C/MYH ratio, plate-normalised SD score; concentration not given, primary screen; direction not given): 3.5
Cn1cc(Nc2nccc(-c3ccc4c(c3)CN(C3COC3)CC[C@H]4NC(=O)c3cn(C(C)(C)C)nn3)n2)cn1 — number of unchanged genes (human B cells; 100 nM, 64 h, stimulation-upregulated genes, added: CpG ODN2006): 79
CC[C@H](C)N(CC(=O)N(CC(=O)N(CC(=O)N(CC(=O)N(CC(=O)N(CC(=O)N(CC(N)=O)[C@@H](C)c1ccccc1)[C@@H](C)c1ccccc1)[C@@H](C)CC)[C@@H](C)c1ccccc1)[C@@H](C)c1ccccc1)[C@@H](C)CC)C(=O)CNCCCCN — cytokine release (THP-1 macrophages; refers to: IL-1β; 50 µM, 72 h, added: LPS 2 ng/mL; relative to: LPS alone): decreased
NNc1nc(-c2ccc(Cl)cc2)c2c(NC(=O)c3ccccc3)nnc-2[nH]1 — cell growth (M14; SRB; 10 µM, NCI60 single-dose screen; relative to: untreated): 102%
O=C(O)CCNC(=O)c1ccccc1 — activity score (human iPSC-derived cardiomyocytes; MyBP-C/MYH ratio, plate-normalised SD score; concentration not given, primary screen; direction not given): 3.2
CCn1cc(-c2cc(Cn3ccoc3=N)cc3c2CCN([C@@H](C)c2cc(OC)ccn2)C3=O)c(C(F)(F)F)n1 — EC50 (JHOS2; cell growth; 120 h): > 30 µM
Fc1cccc(F)c1-c1c(Cl)nc(Cl)n1-c1ccccc1Cl — fold increase (QBI293; ELISA, refers to: acetylated alpha-tubulin; 10 µM; relative to: untreated): 3.75
COc1cnc2cccc(N3CCc4c(cc(Cn5ccnc5C)cc4-c4cn(C)nc4C(F)(F)F)C3=O)c2c1 — EC50 (REH; cell growth, inhibitor; 120 h): > 30 µM
O=C(O)c1cc(-c2ccccc2)nc2ccccc12 — activity score (human iPSC-derived cardiomyocytes; MyBP-C/MYH ratio, plate-normalised SD score; concentration not given, primary screen; direction not given): -3.5
CC/C(=N\NC(=O)NCc1cccc(O)c1)c1ccc(O)c(C)c1O — log ratio (SK-OV-3; gene expression, microarray, refers to: ADAMTS1; 10 µM, 24 h; relative to: DMSO): 4.42
CN(C)CCOC(c1ccc(Cl)cc1)c1ccccn1 (stereo not shown) — activity score (human iPSC-derived cardiomyocytes; MyBP-C/MYH ratio, plate-normalised SD score; concentration not given, primary screen; direction not given): -5.4
CCCCCCCCCCCCCC(=O)N[C@@H](CCSC)C(=O)N[C@@H](C)C(=O)N[C@@H](CO)C(=O)N[C@@H](CCCNC(=N)N)C(=O)NCC(=O)N[C@@H](C)C(=O)N[C@@H](CC(C)C)C(=O)N[C@@H](CCCNC(=N)N)C(=O)N[C@@H](CCCNC(=N)N)C(=O)N[C@@H](CS)C(=O)N[C@@H](CC(C)C)C(=O)N[C@@H](CO)C(=O)N1CCC[C@H]1C(=O)NCC(=O)N[C@@H](CC(C)C)C(=O)N1CCC[C@H]1C(=O)N[C@@H](CCCNC(=N)N)C(=O)N[C@@H](CC(C)C)C(=O)N[C@@H](CC(C)C)C(=O)N[C@@H](Cc1c[nH]cn1)C(=O)N[C@@H](CC(C)C)C(=O)N[C@@H](CO)C(=O)N[C@@H](CCCNC(=N)N)C(=O)NCC(=O)N[C@@H](CC(C)C)C(=O)N[C@@H](C)C(N)=O — viability (U2OS; cell viability, XTT; concentration not given, osteosarcoma): inhibited
C#CCOc1cc(C(=O)Nc2cc(OCCN)c3ccccc3n2)nc(C(=O)Nc2cc(OCCN)c3ccccc3n2)c1 — selectivity ratio (U2OS; cell viability, CellTiter-Glo; 72 h; relative to: IC50 U2OS over WI-38): 0.8
CCn1cc(-c2cc(Cn3ccnc3)cc3c2CCN([C@H](c2cc(OC)ccn2)C2CC2)C3=O)c(C(F)(F)F)n1 — EC50 (REH; cell growth, inhibitor; 120 h): > 30 µM
C[C@]12CCCN1CC1=NNC(=O)c3cc(F)cc4[nH]c2c1c34 — EC50 (MKN-45 gastric cancer cells; cell viability; concentration not given, added: with temozolomide): > 10 µM
CCC(=O)OCC(=O)[C@@]1(OC(=O)CC)[C@@H](C)C[C@H]2[C@@H]3CCC4=CC(=O)C=C[C@]4(C)[C@@]3(Cl)[C@@H](O)C[C@@]21C — activity score (human iPSC-derived cardiomyocytes; MyBP-C/MYH ratio, plate-normalised SD score; concentration not given, primary screen; direction not given): -3.1
CCCCCCNC(=O)CCCSc1nc2ccccc2c(=O)[nH]1 — inhibition (cells, COS-1, expressing proMMP-9; cell migration, 2D collagen dot migration; 50 µM, 18 h): 56 ± 1%
Cn1cc(-c2ccc(-c3cncc(Cl)c3N3CCC4(CCNC4=O)CC3)cc2)cn1 — log2 fold change (COLO 205; gene expression, microarray, refers to: LAMB3 mRNA; concentration not given, 6 h; relative to: untreated cells): 3.21
Cn1c(Nc2nc3ccc(C(F)(F)F)cc3s2)nc2cc(C(=O)NCCOCCO)ccc21 — fold change (SH-SY5Y; RNA-seq, refers to: SPHK1 mRNA; 5 µM, 5 h; relative to: untreated cells): 2.53
COc1ccc(C[C@H](N)C(=O)N[C@H]2[C@@H](O)[C@H](n3cnc4c(N(C)C)ncnc43)O[C@@H]2CO)cc1 — activity score (human iPSC-derived cardiomyocytes; MyBP-C/MYH ratio, plate-normalised SD score; concentration not given, primary screen; direction not given): 4.2
COc1cc2ncnc(Nc3ccc(Oc4ccccc4)c(C)c3C)c2cc1OC.Cl — average fractional effect (LoVo (KRAS G13D); cell viability, resazurin; 0.3 µM, 72 h, added: trametinib 0 nM; relative to: DMSO): 13%
COc1ccccc1OCC(=O)N/N=C/C=C/c1ccc([N+](=O)[O-])o1 — efficacy (C127 LDR GFP reporter cells; silenced GFP reporter induction, activator, high-content imaging; retest, two-run mean): 132%
C=CCn1c(=O)c2cnc(Nc3ccc(N4CCN(C)CC4)cc3)nc2n1-c1ccc2c(n1)[C@@](O)(CC)CC2 — mitotic γH2AX-negative G2/M cells (Kuramochi; flow cytometry, refers to: pHH3+ γH2AX-; concentration not given): 3.8%
CSc1cc(Oc2ccnc3[nH]c(=O)cnc23)ccc1NC(=O)Nc1cc(C(C)(C)C)nn1-c1ccccc1 — phospho/total GSK-3β ratio (patient-derived cell clone A (sample B); reverse phase protein array, refers to: GSK-3β pSer9; human; 1 µM, 4 h; relative to: DMSO): 0.61
OO — total actin filament intensity (U2OS; 4 mM, 15 min, added: 1.2 M sorbitol; relative to: control): increased
Oc1[nH]c2ccccc2c1N=NC(=S)N1CCOCC1 — efficacy (C127 LDR GFP reporter cells; silenced GFP reporter induction, activator, high-content imaging; retest, two-run mean): 93%
Nc1cccc2c1C(=O)N(C1CCC(=O)NC1=O)C2=O (stereo not shown) — surface marker level (RPMI-8226; flow cytometry, refers to: CD227; concentration not given; relative to: comparator compound alone): 226%

For quick reference, copied from above:
COc1cc2ncnc(Nc3ccc(Oc4ccccc4)c(C)c3C)c2cc1OC.Cl — average fractional effect (LoVo (KRAS G13D); cell viability, resazurin; 0.3 µM, 72 h, added: trametinib 0 nM; relative to: DMSO): 13%
Cn1c(Nc2nc3ccc(C(F)(F)F)cc3s2)nc2cc(C(=O)NCCOCCO)ccc21 — fold change (SH-SY5Y; RNA-seq, refers to: SPHK1 mRNA; 5 µM, 5 h; relative to: untreated cells): 2.53
NC(=O)NC1NC(=O)NC1=O (stereo not shown) — activity score (human iPSC-derived cardiomyocytes; MyBP-C/MYH ratio, plate-normalised SD score; concentration not given, primary screen; direction not given): -4.7
COc1cc(Nc2nccc(-c3cnn4nc(OC)ccc34)n2)cc(C(F)(F)F)c1 — IC50 (Hep3B2.1-7; cell growth, CellTiter-Glo; liver): 2.4 µM
CN(C)CCOC(c1ccc(Cl)cc1)c1ccccn1 (stereo not shown) — activity score (human iPSC-derived cardiomyocytes; MyBP-C/MYH ratio, plate-normalised SD score; concentration not given, primary screen; direction not given): -5.4
OO — total actin filament intensity (U2OS; 4 mM, 15 min, added: 1.2 M sorbitol; relative to: control): increased
